# Experimental data gathered from unrelated publications.
# Lines come from different studies, so protocols differ. ± gives the spread as reported.
# OPRD1: Delta-type opioid receptor (OPRD1, Homo sapiens, UniProt P41143)
# Sequence of UniProt P41143 (whole entry, looked up): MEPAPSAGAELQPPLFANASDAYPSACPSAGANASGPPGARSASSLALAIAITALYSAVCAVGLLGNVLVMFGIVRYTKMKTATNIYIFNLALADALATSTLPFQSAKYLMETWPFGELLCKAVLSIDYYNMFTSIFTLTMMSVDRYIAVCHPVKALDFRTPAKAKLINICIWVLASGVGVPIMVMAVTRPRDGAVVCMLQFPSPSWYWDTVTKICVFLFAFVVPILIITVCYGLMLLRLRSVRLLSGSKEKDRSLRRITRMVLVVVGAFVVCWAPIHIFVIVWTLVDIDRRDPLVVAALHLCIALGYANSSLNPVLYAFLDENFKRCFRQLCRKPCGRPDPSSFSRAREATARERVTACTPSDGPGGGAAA
# OPRD1 with β-arrestin2: Delta-type opioid receptor, with β-arrestin2 (OPRD1, Homo sapiens, UniProt P41143)
Structure (SMILES),target,test,test system,setting,Emax
C[C@@H](NC(=O)[C@@H](N)Cc1ccc(O)cc1)C(=O)NCC(=O)N[C@@H](Cc1ccc(F)cc1)C(=O)N1CCN(C(=O)[C@H](Cc2ccc(F)cc2)NC(=O)CNC(=O)[C@@H](C)NC(=O)[C@@H](N)Cc2ccc(O)cc2)CC1,OPRD1,"GTPγS binding, agonist",,cell membranes,94.1%
CCCC[C@H](NC(=O)[C@H](Cc1ccccc1)NC(=O)CNC(=O)[C@@H](C)NC(=O)[C@@H](N)Cc1ccc(O)cc1)C(=O)N1CCC[C@H]1C(=O)N[C@@H](CC(C)C)C(=O)N[C@@H](CO[C@@H]1O[C@H](CO)[C@@H](O)[C@H](O)[C@H]1O)C(=O)N[C@@H](Cc1c[nH]c2ccccc12)C(=O)NCc1cc(C(F)(F)F)cc(C(F)(F)F)c1,OPRD1,"GTPγS binding, agonist, radiometric",,,49%
N=C(N)NCCCCCN1CC[C@]23c4c5ccc(O)c4O[C@H]2c2[nH]c4ccccc4c2C[C@@]3(O)[C@H]1C5,"Delta-type opioid receptor, with Gi1 (OPRD1, Homo sapiens, UniProt P41143)",,human cells,,76 ± 3%
CC(C)C[C@H](NC(=O)[C@@H]1CCCN1C(=O)[C@@H]1NC(=O)[C@H](Cc2ccccc2)NC(=O)CNC(=O)[C@H](NC(=O)[C@@H](N)Cc2ccc(O)cc2)C(C)(C)SSC1(C)C)C(=O)N[C@@H](Cc1c[nH]c2ccccc12)C(=O)NCc1cc(C(F)(F)F)cc(C(F)(F)F)c1,OPRD1,"GTPγS binding, agonist, radiometric",,cell membranes,49%
N=C(N)NCCCCCCCN1CC[C@]23c4c5ccc(O)c4O[C@H]2c2nc4ccccc4cc2C[C@@]3(O)[C@H]1C5,OPRD1 with β-arrestin2,,human cells,,72 ± 3%
C[C@H]1[C@H]2CCC[C@]1(c1cccc(O)c1)CCN2CCc1ccccc1,OPRD1,"GTPγS binding, agonist, radiometric",,cell membranes,-20.3%
CCCC[C@@H]1NC(=O)[C@H](Cc2ccccc2)NC(=O)CNC(=O)[C@H](NC(=O)[C@@H](N)Cc2ccc(O)cc2)C(C)(C)SSC(C)(C)[C@@H](C(=O)N[C@@H](Cc2c[nH]c3ccccc23)C(=O)NCc2cc(C(F)(F)F)cc(C(F)(F)F)c2)NC(=O)[C@@H]2CCCN2C1=O,OPRD1,"GTPγS binding, agonist, radiometric",,cell membranes,63%
CCCC[C@H](NC(=O)[C@H](Cc1ccccc1)NC(=O)CNC(=O)[C@@H](C)NC(=O)[C@@H](N)Cc1ccc(O)cc1)C(=O)N[C@@H](CO[C@@H]1O[C@H](CO)[C@@H](O)[C@H](O)[C@H]1O)C(=O)N[C@@H](CC(C)C)C(=O)N[C@@H](Cc1c[nH]c2ccccc12)C(=O)NCc1cc(C(F)(F)F)cc(C(F)(F)F)c1,OPRD1,"GTPγS binding, agonist, radiometric",,,134%
C[C@@H](NC(=O)[C@@H](N)Cc1ccc(O)cc1)C(=O)NCC(=O)N[C@@H](Cc1ccc(F)cc1)C(=O)Nc1ccccc1NC(=O)[C@H](Cc1ccc(F)cc1)NC(=O)CNC(=O)[C@@H](C)NC(=O)[C@@H](N)Cc1ccc(O)cc1,OPRD1,"GTPγS binding, agonist",,cell membranes,71.6%
Cc1cc(O)cc(C)c1C[C@H](N)C(=O)N[C@H](C)C(=O)NCC(=O)N[C@@H](Cc1ccccc1)C(=O)NNC(=O)[C@H](Cc1ccccc1)NC(=O)CNC(=O)[C@@H](C)NC(=O)[C@@H](N)Cc1c(C)cc(O)cc1C,OPRD1,"GTPγS binding, agonist, radiometric",,cell membranes,35 to 60%
CCCCCCCCN1CCC23c4c5ccc(O)c4OC2c2nc4ccccc4cc2CC3(O)C1C5 (stereo not drawn),OPRD1 with β-arrestin2,,human cells,,64 ± 2%
Cc1cc(O)cc(C)c1C[C@H](N)C(=O)N1Cc2ccccc2C[C@H]1C(=O)NCC(=O)NCc1ccccc1,OPRD1,"GTPγS binding, agonist, radiometric",,cell membranes,6.8%

# Excerpt of the above:
Structure (SMILES),target,test,test system,setting,Emax
CC(C)C[C@H](NC(=O)[C@@H]1CCCN1C(=O)[C@@H]1NC(=O)[C@H](Cc2ccccc2)NC(=O)CNC(=O)[C@H](NC(=O)[C@@H](N)Cc2ccc(O)cc2)C(C)(C)SSC1(C)C)C(=O)N[C@@H](Cc1c[nH]c2ccccc12)C(=O)NCc1cc(C(F)(F)F)cc(C(F)(F)F)c1,OPRD1,"GTPγS binding, agonist, radiometric",,cell membranes,49%
N=C(N)NCCCCCCCN1CC[C@]23c4c5ccc(O)c4O[C@H]2c2nc4ccccc4cc2C[C@@]3(O)[C@H]1C5,OPRD1 with β-arrestin2,,human cells,,72 ± 3%
